Published values collected from several papers.
Compare with care: the assays were run in different laboratories. ± gives the spread as reported.
Organism: HIV-1

With CC(=O)NCCN(CC(=O)NCCN(CC(=O)NCCN(CC(=O)NCCC(N)=O)C(=O)C[C@@H](N)Cc1ccccc1)C(=O)C[C@@H](N)Cc1ccccc1)C(=O)C[C@@H](N)CCCNC(=N)N the EC50 was 85000 nM (viral replication, measured: reverse transcriptase activity; PBMC, LAI).
Cc1cc(C#N)cc(C)c1Oc1nc(NC2CCN(Cc3ccc(C(N)=O)cc3)CC2)nc2ncccc12 has an EC50 of 1.08 ± 0.41 nM (viral replication, luciferase reporter; TZM-bl, NL4-3 wild type).
For COc1ccc(-n2c(SCCCN3CCOCC3)nnc2[C@H](Cc2ccccc2)NC(=O)Cc2c(C)[nH]c3ccccc23)cc1, the EC50 was 590 ± 80 nM (HIV-1-induced cytopathicity, MTT; MT-4, wild type; 50% protection).
With CC(=O)OCC1OC(n2cc(C)c(=O)[nH]c2=O)C2CC=CCC12 (mixture of isomers) the EC50 was 82000 nM (viral replication; human PBM cells, LAI).
The EC50 of Cc1cc(C)cc(S(=O)(=O)c2c(C(=O)NC3CC4(C3)CN(Cc3n[nH]c(=O)[nH]3)C4)[nH]c3ccc(Cl)cc23)c1 is reported as 5.3 ± 1.4 nM (viral replication; MT-4, IIIB).
For N#Cc1ccc(Nc2nccc(C(=O)c3c(F)cc(F)cc3F)n2)cc1, the EC50 was 25 nM (cytoprotection; MT4, IIIB wild type; 5 days).
COc1ccc(-n2c(SCc3ccncc3)nnc2[C@H](Cc2ccccc2)NC(=O)Cc2c(C)[nH]c3ccccc23)cc1 gave an EC50 of 2890 ± 340 nM (HIV-1-induced cytopathicity, MTT; MT-4, wild type; 50% protection).
CC(=O)OCC1OC(n2cnc3c(Cl)nc(Cl)nc32)C2CC=CCC12 (mixture of isomers) gave an EC50 of 24600 nM (viral replication; human PBM cells, LAI).
Cc1[nH]c2ccccc2c1CC(=O)N[C@@H](Cc1ccccc1)C(=O)N(C)c1ccccc1 has an EC50 of 610 ± 200 nM (viral replication; TZM-GFP, NL4-3).
For CC(=O)Nc1ccn(C2OC(COC(C)=O)C3CC=CCC32)c(=O)n1 (mixture of isomers), the EC50 was greater than 100000 nM (viral replication; human PBM cells, LAI).
The EC50 of Cc1cc(C#N)cc(C)c1Oc1nc(NC2CCN(Cc3cccc(Cl)c3)CC2)nc2ccccc12 is reported as 25.3 ± 7.82 nM (viral replication, luciferase reporter; TZM-bl, NL4-3 wild type).
C=CCSc1nnc([C@H](Cc2ccccc2)NC(=O)Cc2c(C)[nH]c3ccccc23)n1-c1ccc(OC)cc1 has an EC50 of 2050 ± 470 nM (HIV-1-induced cytopathicity, MTT; MT-4, wild type; 50% protection).
With Cc1cc(C#N)cc(C)c1Oc1nc(NC2CCN(Cc3cccc(F)c3)CC2)nc2ccccc12 the EC50 was 25.3 ± 7.97 nM (viral replication, luciferase reporter; TZM-bl, NL4-3 wild type).
With COc1ccc(-n2c(SCC#N)nnc2[C@H](Cc2ccccc2)NC(=O)Cc2c(C)[nH]c3ccccc23)cc1 the EC50 was 590 ± 60 nM (HIV-1-induced cytopathicity, MTT; MT-4, wild type; 50% protection).
The EC50 of CC(C)(C)OC(=O)N1CCC(C(=O)N[C@@H](Cc2ccc3ccccc3c2)C(=O)O)(c2ccc3ccccc3c2)CC1 is reported as roughly 58000 nM (viral replication; pNL4-3 wild type).
With Cc1cc(Oc2c(C(F)(F)F)ccn(Cc3n[nH]c(=O)n3C)c2=O)c2cccc(Cl)c2n1 the EC50 was greater than 233000 nM (viral cytopathicity; MT4, wild type).
For Cc1cc(C#N)cc(C)c1Oc1nc(NC2CCN(Cc3ccccc3C#N)CC2)nc2ccccc12, the EC50 was 27.8 ± 6.45 nM (viral replication, luciferase reporter; TZM-bl, NL4-3 wild type).
CC(=O)NCCN(CC(=O)NCCN(CC(=O)NCCN(CC(=O)NCCC(N)=O)C(=O)C[C@@H](N)Cc1ccccc1)C(=O)C[C@@H](N)CCCNC(=N)N)C(=O)C[C@@H](N)CCCNC(=N)N gave an EC50 of 95000 nM (viral replication, measured: reverse transcriptase activity; PBMC, LAI).
Cc1cc(C#N)cc(C)c1Oc1nc(NC2CCN(Cc3cccc(Br)c3)CC2)nc2ccccc12 has an EC50 of 38.1 ± 14.5 nM (viral replication, luciferase reporter; TZM-bl, NL4-3 wild type).
For Nc1ncnc2c1ncn2C1OC(CO)C2CC=CCC21 (mixture of isomers), the EC50 was greater than 100000 nM (viral replication; human PBM cells, LAI).
The EC50 of Cc1cc(/C=C/C#N)cc(C)c1Oc1nc(NC2CCN(Cc3ccc(S(N)(=O)=O)cc3)CC2)nc2ncccc12 is reported as 6.67 ± 1.93 nM (viral replication, luciferase reporter; TZM-bl, NL4-3 wild type).
With COc1ccc(-n2c(SCCN3CCOCC3)nnc2[C@H](Cc2ccccc2)NC(=O)Cc2c(C)[nH]c3ccccc23)cc1 the EC50 was 790 ± 290 nM (HIV-1-induced cytopathicity, MTT; MT-4, wild type; 50% protection).
Cc1cc(/C=C/C#N)cc(C)c1Oc1nc(NC2CCN(Cc3ccc(S(C)(=O)=O)cc3)CC2)nc2ncccc12 gave an EC50 of 1.16 ± 0.44 nM (viral replication, luciferase reporter; TZM-bl, NL4-3 wild type).
CC(=O)NCCN(CC(=O)NCCN(CC(=O)NCCN(CC(=O)NCCC(N)=O)C(=O)C[C@@H](N)CCCNC(=N)N)C(=O)C[C@@H](N)CCCCN)C(=O)C[C@@H](N)Cc1ccccc1 gave an EC50 of 219000 nM (viral replication, measured: reverse transcriptase activity; PBMC, LAI).

Repeated from above:
With COc1ccc(-n2c(SCCN3CCOCC3)nnc2[C@H](Cc2ccccc2)NC(=O)Cc2c(C)[nH]c3ccccc23)cc1 the EC50 was 790 ± 290 nM (HIV-1-induced cytopathicity, MTT; MT-4, wild type; 50% protection).
With CC(=O)NCCN(CC(=O)NCCN(CC(=O)NCCN(CC(=O)NCCC(N)=O)C(=O)C[C@@H](N)Cc1ccccc1)C(=O)C[C@@H](N)Cc1ccccc1)C(=O)C[C@@H](N)CCCNC(=N)N the EC50 was 85000 nM (viral replication, measured: reverse transcriptase activity; PBMC, LAI).
Cc1cc(C#N)cc(C)c1Oc1nc(NC2CCN(Cc3ccc(C(N)=O)cc3)CC2)nc2ncccc12 has an EC50 of 1.08 ± 0.41 nM (viral replication, luciferase reporter; TZM-bl, NL4-3 wild type).
CC(=O)NCCN(CC(=O)NCCN(CC(=O)NCCN(CC(=O)NCCC(N)=O)C(=O)C[C@@H](N)Cc1ccccc1)C(=O)C[C@@H](N)CCCNC(=N)N)C(=O)C[C@@H](N)CCCNC(=N)N gave an EC50 of 95000 nM (viral replication, measured: reverse transcriptase activity; PBMC, LAI).
